{"data": "Results pooled from the literature", "organism": "Staphylococcus epidermidis", "note": "Each line is one published result; not all experiments were run side by side. Values joined by “and” are separate records of one study, mostly repeats; a detail may differ."}
{"SMILES": "O=[N+]([O-])c1ccc2c(N=Nc3c(O)ccc4ccccc34)c(O)cc(S(=O)(=O)O)c2c1", "test system": "LB medium", "conditions": "100 µM, 50% growth delay", "quantity": "growth delay", "value": "6.8 h"}
{"SMILES": "COc1c(N2C[C@@H]3CCCN[C@@H]3C2)c(F)cc2c(=O)c(C(=O)O)cn(C3CC3)c12", "assay": "broth microdilution", "test system": "methicillin-resistant isolates", "quantity": "MIC50", "value": "1 µg/mL"}
{"SMILES": "CN[C@H](CC(C)C)C(=O)N[C@H]1C(=O)N[C@@H](CC(N)=O)C(=O)N[C@H]2C(=O)N[C@H]3C(=O)N[C@H](C(=O)N[C@H](C(=O)O)c4cc(O)cc(O)c4-c4cc3ccc4O)[C@H](O)c3ccc(c(Cl)c3)Oc3cc2cc(c3O[C@@H]2O[C@H](CO)[C@@H](O)[C@H](O)[C@H]2O[C@H]2C[C@](C)(N)[C@H](O)[C@H](C)O2)Oc2ccc(cc2Cl)[C@H]1O", "assay": "broth microdilution", "test system": "methicillin-susceptible clinical isolates", "quantity": "MIC range", "value": "1 µg/mL"}
{"SMILES": "CN[C@H](CC(C)C)C(=O)N[C@H]1C(=O)N[C@@H](CC(N)=O)C(=O)N[C@H]2C(=O)N[C@H]3C(=O)N[C@H](C(=O)N[C@H](C(=O)O)c4cc(O)cc(O)c4-c4cc3ccc4O)[C@H](O)c3ccc(c(Cl)c3)Oc3cc2cc(c3O[C@@H]2O[C@H](CO)[C@@H](O)[C@H](O)[C@H]2O[C@H]2C[C@](C)(N)[C@H](O)[C@H](C)O2)Oc2ccc(cc2Cl)[C@H]1O", "test system": "9397, female ICR mice, peritonitis, blood", "conditions": "dose not given", "quantity": "bacterial load", "value": "5.27 log CFU and 4.87 log CFU and 3.98 log CFU and 4.26 log CFU and 5.88 log CFU and 4.42 log CFU"}
{"SMILES": "O=C(O)CN(CCN(CC(=O)O)CC(=O)O)CC(=O)O", "test system": "MRSE 35984", "conditions": "24 h", "quantity": "MBC", "value": "1000 µM"}
{"SMILES": "c1ccc(CN(CCN(Cc2ccccn2)Cc2ccccn2)Cc2ccccn2)nc1", "assay": "Calgary biofilm device", "test system": "MRSE 35984", "conditions": "planktonic cells", "quantity": "MBC", "value": "1000 µM"}
{"SMILES": "c1ccc(CN(CCN(Cc2ccccn2)Cc2ccccn2)Cc2ccccn2)nc1", "assay": "Calgary Biofilm Device", "test system": "MRSE 35984, established biofilm", "conditions": "24 h", "quantity": "MBEC", "value": "> 2000 µM"}
{"SMILES": "Oc1c(Br)cc(Br)c2nc3c(F)cccc3nc12", "assay": "broth microdilution", "test system": "12228", "quantity": "MIC", "value": "0.78 µM"}
{"SMILES": "CN[C@H](CC(C)C)C(=O)N[C@H]1C(=O)N[C@@H](CC(N)=O)C(=O)N[C@H]2C(=O)N[C@H]3C(=O)N[C@H](C(=O)N[C@H](C(=O)O)c4cc(O)cc(O)c4-c4cc3ccc4O)[C@H](O)c3ccc(c(Cl)c3)Oc3cc2cc(c3O[C@@H]2O[C@H](CO)[C@@H](O)[C@H](O)[C@H]2O[C@H]2C[C@](C)(N)[C@H](O)[C@H](C)O2)Oc2ccc(cc2Cl)[C@H]1O", "test system": "methicillin-resistant, 10 isolates", "conditions": "pH 8.5", "quantity": "MIC50", "value": "2 µg/mL"}
{"SMILES": "NC[C@H]1O[C@H](O[C@H]2[C@H](O)[C@@H](O[C@H]3O[C@H](CO)[C@@H](O)[C@H](N)[C@H]3O)[C@H](N)C[C@@H]2N)[C@H](N)C[C@@H]1O", "test system": "1", "quantity": "MIC", "value": "1.56 µM"}
{"SMILES": "CC(=O)NC[C@H]1CN(c2ccc(N3CCOCC3)c(F)c2)C(=O)O1", "test system": "methicillin-resistant, 10 isolates", "conditions": "serum 75%", "quantity": "MIC50", "value": "4 µg/mL"}
{"SMILES": "O=C(O)CN(CCN(CC(=O)O)CC(=O)O)CC(=O)O", "test system": "MRSE 35984", "quantity": "MBC", "value": "250 µM"}
{"SMILES": "Cc1c2c(nn1C)CSCc1cc(n(C)n1)CSc1cc(c3ccccc3c1)OCCCc1c(C(=O)O)n(C)c3c-2c(Cl)ccc13", "assay": "broth microdilution", "test system": "1457", "quantity": "MIC", "value": "6.25 µM"}
{"SMILES": "C[C@H]1COC2=C1C(=O)C(=O)c1c2ccc2c1CCCC2(C)C", "test system": "GDMCC 1.143", "conditions": "48 h", "quantity": "MIC", "value": "125 µM"}
{"SMILES": "CC1(C)S[C@@H]2[C@H](NC(=O)[C@H](N)c3ccccc3)C(=O)N2[C@H]1C(=O)O", "quantity": "MIC50", "value": "64 µg/mL"}
{"note": "Excerpt of the above:"}
{"SMILES": "NC[C@H]1O[C@H](O[C@H]2[C@H](O)[C@@H](O[C@H]3O[C@H](CO)[C@@H](O)[C@H](N)[C@H]3O)[C@H](N)C[C@@H]2N)[C@H](N)C[C@@H]1O", "test system": "1", "quantity": "MIC", "value": "1.56 µM"}
{"SMILES": "c1ccc(CN(CCN(Cc2ccccn2)Cc2ccccn2)Cc2ccccn2)nc1", "assay": "Calgary Biofilm Device", "test system": "MRSE 35984, established biofilm", "conditions": "24 h", "quantity": "MBEC", "value": "> 2000 µM"}
